Measurements of several laboratories.
Protocols differ between the studies behind these lines. ± gives the spread as reported.
CASP4: Caspase-4 (CASP4, Homo sapiens, UniProt P49662)
APP: Amyloid-beta precursor protein (APP, Homo sapiens, UniProt P05067)
Nr3c1: Glucocorticoid receptor (Nr3c1, Rattus norvegicus, UniProt P06536)
Fibroblast growth factor 2 with pentraxin 3: Fibroblast growth factor 2, with pentraxin 3 (Homo sapiens, UniProt P09038)

| Substance | target | test | system | setting | how to read | measurement | result |
| --- | --- | --- | --- | --- | --- | --- | --- |
| CC(C(=O)O)c1ccc(C(=O)c2cccs2)cc1 (stereo not drawn) | CASP4 |  |  | 33 µM, added: LEHD substrate | baseline: solvent control | remaining activity | 8.74% |
| CC[C@@H](C)[C@@H](NC(=O)[C@@H](NC(=O)[C@@H](N)C(C)C)C(C)C)C(=O)N[C@@H](C)C(N)=O | APP | amyloid aggregation, inhibitor, fluorescence |  | 4 µM, 24 h |  | inhibition | 25.3% |
| Ac-GPSLNPFDEED-NH2 (N-acetyl, C-amide) | EHD1 EH domain, mouse | ITC | peptide | pH 7.0, 20 °C, 0 mM KCl, second titration |  | ΔG | -7920 cal/mol |
| O=C(O)c1ccccc1Nc1cccc(C(F)(F)F)c1 | CASP4 |  |  | 33 µM, added: LEHD substrate | baseline: solvent control | remaining activity | 23.4% |
| Cn1c(=O)c2[nH]c(Cc3ccccc3)nc2n(C)c1=O | Nr3c1 | reporter gene, antagonist, MMTV-luciferase | T47D/A1-2 | 10 µM, 24 h, added: 5 nM dexamethasone | baseline: maximal activity | remaining activity | 117% |
| DDESIYINIPDGE | CSK (Homo sapiens, UniProt P41240) | substrate | peptide | concentration not given | baseline: Glu or Asp Y-1 parent peptide | kcat/Km fold change | 1.4 fold |
| O=C(Nc1nnc(S(=O)(=O)N2CCOCC2)s1)c1cccc(Br)c1 | GPR32 (Homo sapiens, UniProt O75388) | β-arrestin recruitment, agonist, PathHunter | CHO cells expressing GPR32 | concentration not given | baseline: vehicle | efficacy | 43% |
| Cc1cccc(C)c1C(=O)OCC(=O)[C@H](CCCCN)NC(=O)[C@H](CCCN=C(N)N)NC(=O)OCc1ccccc1 | Cathepsin B (CTSB, Homo sapiens, UniProt P07858) | enzyme activity, inhibitor | neuroblastoma cells | 50 µM, 6 h, 37 °C, added: Z-Arg-Arg-AMC |  | inhibition | inhibited |
| O=S(=O)(Nc1ccccc1Cl)C1CC2OC1C(c1ccc(O)cc1)=C2c1ccc(O)cc1 (stereo not drawn) | Estrogen receptor (ESR1, Homo sapiens, UniProt P03372) | reporter gene, antagonist | HepG2 | added: estradiol 10 nM | baseline: E2 response, negative is inverse agonism | efficacy | 89 ± 4% |
| Cn1c(=O)n([C@@H]2O[C@H](COP(=O)(O)CP(=O)(O)O)[C@@H](O)[C@H]2O)cc/c1=N\OCc1ccc(Cl)cc1 | 5'-nucleotidase, membrane-bound form (Rattus norvegicus, UniProt P21588) | enzyme activity, inhibitor | rat primary astrocytes | 15 min preincubation, added: AMP 1.0 mM |  | Emax | 97.3 ± 6.4% |
| N[C@H](CCC(=O)O)C(=O)O | racE (Bacillus subtilis, UniProt P94556) | enzyme activity, inhibitor |  |  |  | binding free energy | -22.2 kJ/mol |
| Ac-ARPSA-NH2 (N-acetyl, C-amide) | Fibroblast growth factor 2 with pentraxin 3 | binding to PTX3, competitor, surface plasmon resonance | peptide | added: 150 nM free FGF2 |  | ID50 | > 3000 µM |
| CSCC[C@H](NC(=O)NC1(c2ccccc2)CCN(Cc2cncn2Cc2ccc(-n3cc(COCCCCCCNC(=O)c4ccc(NC(=N)N)cc4)nn3)cc2)CC1)C(=O)O | Geranylgeranyl transferase type I (Homo sapiens, UniProt P49354+P53609) | enzyme activity, inhibitor, fluorescence |  | added: dansyl-K-Ras C-terminal peptide | baseline: guanidyl-gallate derivative | relative potency | ~230 |
| O=C1C=CCCC1 | Enoyl-ACP reductase (Thermus thermophilus, UniProt P83818) | enzyme activity, substrate, steady-state turnover |  |  |  | NAD(P)H oxidation rate | no effect |
| CCCCc1nc2c([nH]1)c(=O)n(C)c(=O)n2C | Nr3c1 | reporter gene, antagonist, MMTV-luciferase | T47D/A1-2 | 10 µM, 24 h, added: 5 nM dexamethasone | baseline: maximal activity | remaining activity | 121% |
| O=C(N1CCCC[C@@H]1Cc1ccccc1)n1cnc(C(O)(c2ccc(F)cc2)c2ccc(F)cc2)n1 | Diacylglycerol lipase-alpha (Mus musculus, UniProt Q6WQJ1) | enzyme activity, inhibitor |  |  |  | kinact | 0.00125 s⁻¹ |
| NC(=O)C(=O)O | pyc (Rhizobium etli, UniProt Q2K340) | ATP cleavage, substrate inhibitor |  | pH 7.8, 30 °C, added: 20 mM bicarbonate, 2.5 mM MgATP, 0.25 mM acetyl-CoA |  | Ki | 19 ± 2 mM |
| CC[S+]([O-])c1nc(-c2cccc(OCc3ccccc3)c2)cc(C(F)(F)F)n1 (stereo not drawn) | GLP1R (Homo sapiens, UniProt P43220) | cAMP accumulation, agonist | HEK293T overexpressing GLP1R |  |  | Emax | 76 to 91% |
| COC1=C(OC)C(=O)C(C/C=C(\C)CC/C=C(\C)CC/C=C(\C)CC/C=C(\C)CC/C=C(\C)CC/C=C(\C)CC/C=C(\C)CCC=C(C)C)=C(C)C1=O | regB (Rhodobacter capsulatus, UniProt D5AKG6) | UV difference spectrum, NaBH4 |  | pH 7.6, 22 °C, copurified, expressed in Escherichia coli |  | bound compound | 0.6 to 0.8 mol/mol protein |
| Nc1nc2c(ncn2[C@@H]2O[C@@H]3COP(=O)(O)O[C@H]3[C@H]2O)c(=O)[nH]1 | Cnga2 (Rattus norvegicus, UniProt Q00195, C460W/E583M) | ion current, agonist, inside-out patch clamp |  | C460W/E583M channel, +50 mV | baseline: cAMP at saturation | relative maximal current | 0.84 ± 0.1 |
| COc1cc(C=O)ccc1O | UGT (rat) | 4-MU glucuronidation, inhibitor | rat liver microsomes |  |  | lowest inhibitory concentration | ≥ 0.1 µM |
| Cc1c(C)c2c(c(C)c1O)CC[C@@](C)(CCCCCCCCCn1ccnc1)O2 | Cytochrome P450 4F2 (Homo sapiens, UniProt P78329) | γ-tocopherol metabolism | HepG2/C3A |  |  | concentration for complete inhibition | < 0.25 µM |
| CQTA | Protein farnesyltransferase (Rattus norvegicus, UniProt Q02293+Q04631) | substrate, stopped-flow fluorescence | peptide | pH 7.8, 25 °C, single turnover |  | farnesylation rate constant | 0.23 ± 0.02 s⁻¹ |
| COC(=O)COc1ccc(C=CC(=O)CC(=O)C=Cc2ccc(O)c(OC)c2)cc1OC | APP | Aβ aggregation, SDS-PAGE western blot, item: Aβ1-42 75-200 kDa band |  | 30 µM, 24 h, 37 °C, added: Aβ1-42 10 µM | baseline: DMSO | band density | 294 ± 25% |
| O=c1ccn([C@@H]2O[C@H](COP(=O)(O)OP(=O)(O)O)[C@@H](O)[C@H]2O)c(=O)[nH]1 | ABO (Homo sapiens, UniProt P16442, G235S/G268A/L266M/R176G) | ZZ-exchange NMR |  | 250 µM, added: H-disaccharide 1.5 mM |  | exchange rate constant kAB | 2 ± 0.5 Hz |
| H-ARPCA-NH2 (C-amide) | Fibroblast growth factor 2 with pentraxin 3 | binding to PTX3, competitor, surface plasmon resonance | peptide | added: 150 nM free FGF2 |  | ID50 | 2000 µM |
| CC1(C)[C@@H](OC(=O)CCC(=O)O)CC[C@]2(C)[C@H]3C(=O)C=C4[C@@H]5C[C@@](C)(C(=O)O)CC[C@]5(C)CC[C@@]4(C)[C@]3(C)CC[C@@H]12 | GJA1 (Homo sapiens, UniProt P17302) | hemichannel ATP release | ARPE-19 | 100 µM, added: low calcium 35 min | baseline: untreated | ATP release | decreased |
